{"data": "Experimental data gathered from unrelated publications", "note": "Parts stem from different laboratories: compare values within a part only."}
{"data": "Series 1", "target": "Histone acetyltransferase KAT6A, winged helix 2, GST fusion (KAT6A, Homo sapiens, UniProt Q92794, residues 85-181)", "method": "protein binding microarray", "molecule type": "double-stranded DNA, one strand shown", "medium": "in vitro", "tested at": "not given", "setting": "8-mer, flanks averaged, mean of 2 arrays, mostly near background", "relative to": "not given", "reading": "higher = stronger binding", "Target sequence (chain)": "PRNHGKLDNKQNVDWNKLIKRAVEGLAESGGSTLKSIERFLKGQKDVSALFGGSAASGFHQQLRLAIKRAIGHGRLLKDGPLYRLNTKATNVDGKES"}
{"Sequence": "CGGATGAA", "E-score": 0.189}
{"Sequence": "CCCCAGCC", "E-score": 0.0864}
{"Sequence": "CTCAACCA", "E-score": 0.0732}
{"Sequence": "CTAATTCC", "E-score": 0.0561}
{"Sequence": "CGAGGTCA", "E-score": 0.111}
{"data": "Series 2", "target": "Prothrombin, mature alpha-thrombin (F2, Homo sapiens, UniProt P00734)", "method": "aptamer microarray, sandwich", "molecule type": "DNA with 2'F-ANA", "medium": "in vitro", "tested at": "200 nM", "setting": "whole 15-mer aptamer, many near background", "with": "Cy3 exosite-II aptamer, 400 nM", "reading": "higher = stronger binding", "sequence": "GGTTGGTGTGGTTGG"}
{"Modification": "2'F-ANA at 1 2 3 5 7 9 10 12", "mean fluorescence intensity [a.u.]": 50.4}
{"Modification": "2'F-ANA at 2 3 7 9 10 11 14 15", "mean fluorescence intensity [a.u.]": 263}
{"Modification": "2'F-ANA at 1 2 4 5 6 9 10 12 14 15", "mean fluorescence intensity [a.u.]": 47.6}
{"Modification": "2'F-ANA at 2 3 5 7 8 12 13 15", "mean fluorescence intensity [a.u.]": 167}
{"Modification": "2'F-ANA at 6 7 10 12 13 14 15", "mean fluorescence intensity [a.u.]": 126}
{"Modification": "2'F-ANA at 2 3 4 5 8 11 12 14 15", "mean fluorescence intensity [a.u.]": 57.7}
{"data": "Other studies, line by line", "IRF5 K96S/S451D/S453D/S456D/S462D full length, phosphomimetic": "Interferon regulatory factor 5, full length, phosphomimetic (IRF5, Homo sapiens, UniProt Q13568-2, residues 1-514, K96S/S451D/S453D/S456D/S462D)"}
{"Molecule": "GCCTAGCACTTAGTTATCGGACTGGGTTAGTGCTAGGTCTTGATTCGCTTGACGCTGCTG", "target": "IRF5 K96S/S451D/S453D/S456D/S462D full length, phosphomimetic", "test": "protein-binding microarray", "system": "double-stranded DNA, one strand shown, in vitro", "setting": "250 nM, 60-bp whole probe, with: salmon DNA 0.4 mg/ml", "how to read": "relative to: random background probes, higher = stronger binding", "measurement": "log fluorescence", "value": "1.37 z-score"}
{"Molecule": "PhoQ, residues 284 288 289 292 302 303 SIHLQL", "target": "PhoP, residues 12 14 15 18 19 LHTVM (Escherichia coli, UniProt P23836)", "test": "Sort-seq, item: YFP reporter", "system": "E. coli", "setting": "PhoQ-PhoP variant library, with: 10 µM Mg2+", "how to read": "relative to: high Mg2+ state, higher = stronger signaling", "measurement": "fold induction", "value": 13.8}
{"Molecule": "GCCTAGCACGACGGTATCGGACTGGGAACGTGCTAGGTCTTGATTCGCTTGACGCTGCTG", "target": "IRF5 K96S/S451D/S453D/S456D/S462D full length, phosphomimetic", "test": "protein-binding microarray", "system": "double-stranded DNA, one strand shown, in vitro", "setting": "250 nM, 60-bp whole probe, with: salmon DNA 0.4 mg/ml", "how to read": "relative to: random background probes, higher = stronger binding", "measurement": "log fluorescence", "value": "1.12 z-score"}
